Results pooled from the literature.
Each line is one published result; not all experiments were run side by side.
Cell line: B16-F10

Compound | assay | system | setting | measurement | result
CC(=O)Nc1ccc(OC(=O)CCC(=O)[O][Pt-2]23([O]C(=O)CCC(=O)Oc4ccc(NC(C)=O)cc4)([NH2+][C@@H]4CCCC[C@H]4[NH2+]2)[O]C(=O)C(=O)[O]3)cc1 | cell growth or viability, MTT | – | 48 h | IC50 | 15.9 µM
O=C(NCCc1ccccc1)c1ccccc1-n1c(=O)[nH]c2ccccc2c1=O | cell growth or viability, MTT | – | 24 h | IC50 | 44 µM
Cc1cc(-c2ccccc2)c2ccc3c(-c4ccccc4)cc(C)nc3c2n1.[Cl-].[Cl-].[Ru+2].c1ccc(-c2ccccn2)nc1.c1ccc(-c2ccccn2)nc1 | cell viability, WST-1 | – | 72 h, dark | IC50 | > 100 µM
C[C@@H](NC(=O)Cc1ccc(Cl)c(SC2C(=O)CC(c3c(Cl)cccc3Cl)CC2=O)c1)c1cccc2ccccc12 (stereo partly drawn) | Western blot | – | concentration not given, 24 h | c-Myc and p-Rb/Rb levels | decreased
C=C(C)[C@@H]1CC[C@]2(C(=O)OCO/N=[N+](\[O-])N3CCCC3)CC[C@]3(C)[C@H](CC[C@@H]4[C@@]5(C)CC[C@H](OC(C)=O)C(C)(C)[C@@H]5CC[C@]43C)[C@@H]12 | western blot | cytosol | 0.25 to 1.0 µM, 48 h | cytochrome c level | increased
C=C1C(=O)OC2CC3=C[C@@H](C/C(C)=C/C(OC(=O)Cc4cccc5ccccc45)[C@H]12)OC3=O (stereo partly drawn) | cell growth or viability, MTT | – | 24 h | IC50 | 2.7 µM
O=c1[nH]c2ccccc2nc1/C=C/C=C/c1ccccc1 | cell growth or viability, MTT | – | 72 h | IC50 | 10.6 µM
O=C1Nc2ccccc2/C1=N/c1ccccc1C(=O)Nc1ccccc1 | cell growth or viability, MTT | – | 24 h | IC50 | 22.2 µM
COC(=O)c1ccc(-n2nc(C(F)(F)F)cc2-c2cc(OC)c(OC)c(OC)c2)cc1 | cell growth or viability, SRB | – | – | IC50 | 6 µM
COc1cc(C(=O)c2[nH]c(N)nc2-c2cccs2)cc(OC)c1OC | cell growth or viability, SRB | – | – | IC50 | 0.416 µM
O=c1[nH]c2ccccc2nc1/C=C/c1ccc2ccccc2n1 | cell growth or viability, MTT | – | 72 h | IC50 | 13 µM
C=C1C(=O)O[C@H]2CC3=C[C@@H](C/C(C)=C/[C@@H](OC(=O)/C=C/c4ccccc4)[C@H]12)OC3=O | cell growth or viability, MTT | – | 24 h | IC50 | 3.9 µM
